Results from different studies.
Medium: plasma

SMILES | test system | conditions | Cmax
Cc1cccc(C)c1CNc1cc(C(=O)N2CCC2)cn2c(C)c(C)nc12 | male Sprague-Dawley rat | oral, 10 mg/kg | 303 ng/mL
C=C(NC(=O)c1csc(-c2nc3c(cc2O)-c2nc(cs2)C(=O)NC(C(C)O)C(=O)NC(=C(C)OC)c2nc(cs2)C(=O)NC2c4nc(cs4)C(=O)NC(COC(=O)c4c5c6c(cccc6n4O)COC(=O)C(OC4CC(C)(O)C(N(C)C)C(C)O4)C2OC5)c2nc-3cs2)n1)C(N)=O (stereo not drawn) | male Sprague-Dawley rat | intravenous, 6 mg/kg, single dose, infusion | 3540 ng/mL
COCCN(C)CC(=O)NC(Cc1ccc(-c2ccccc2)cc1)B(O)O (stereo not drawn) | rat | oral, 1 mg/kg | 1.4 µM
CC(=O)O[C@@H]1CC[C@@]2(C)[C@@H](CC[C@]3(C)[C@@H]2C(=O)C=C2[C@@H]4[C@@H](C)[C@H](C)CC[C@]4(C)CC[C@]23C)[C@@]1(C)C(=O)O | female Wistar rat | oral, 1 mg/kg | 3360 ng/mL
OC1(C(F)(F)F)CCN(c2nc(Nc3ccnc(C(F)(F)F)c3)nc(-c3cccc(C(F)(F)F)n3)n2)C1 (stereo not drawn) | Sprague-Dawley rat | oral, 10 mg/kg | 558 ng/mL
CNc1cc(N)c(C(N)=O)cn1 | male Wistar rat | oral, 30 mg/kg | 30 µM
CCC(CC)n1c(Cc2cccs2)nc2cc(C(=O)N[C@@H](CC(=O)O)c3ccccc3)ccc21 | male Sprague-Dawley rat | intraperitoneal, 10 mg/kg | 1670 ng/mL
COc1ccc(C(N)=O)cn1 | male Wistar rat | oral, 30 mg/kg | ~100 µM
O=C(O)c1c(O)cc(O[C@@H]2O[C@H](CO)[C@@H](O)[C@H](O)[C@H]2O)cc1/C=C/c1ccccc1 | male Sprague-Dawley rat | oral, 5 mg/kg | 114 ng/mL
O=C(C1CCN(c2nnnn2-c2ccccc2)CC1)N1CCCc2ccccc21 | male Sprague-Dawley rat | oral, 5 mg/kg | 10.2 ng/mL
CCC(CC)n1c(Cc2ccco2)nc2cc(C(=O)N[C@@H](CC(=O)O)c3ccccc3)ccc21 | male Sprague-Dawley rat | intravenous, 1 mg/kg | 964 ng/mL
COC1C(c2ccc(Cl)c(Cc3ccc(OC4CCOC4)cc3)c2)OC(CO)C(O)C1O (stereo not drawn) | Sprague-Dawley rat | oral, 5 mg/kg | 3140 ng/mL
Cc1cccc(Cn2ncc3c4cc(F)c(CN(C)C)cc4n(C)c3c2=O)n1 | Sprague-Dawley rat | oral, 10 mg/kg | 301 ng/mL
CC(=Nc1ccc(N)cc1)N(C)C | male Sprague-Dawley rat | intravenous, 20 mg/kg | 3300 ng/mL
COc1cc(OC)c2c(=O)cc(-c3cc(C)c(OCCCN4CCN(C)CC4)c(C)c3)oc2c1 | male Sprague-Dawley rat | intravenous, 10 mg/kg, single dose | 1970 ng/mL
C/C(N)=N/C(=N\S(=O)(=O)c1ccc(C(F)(F)F)cc1)N1C[C@H](c2ccccc2)C(c2ccc(Cl)cc2)=N1 | male Sprague-Dawley rat | oral, 30 mg/kg | 3120 ng/mL
COC(=O)C1=CNC=C(C(=O)OC)C1c1ccc(F)c(C(F)(F)F)c1 | male Sprague-Dawley rat | oral, 50 mg/kg | 764 ng/mL
Cc1cc2c(cc1O)C=C1C=CC(=O)C(C)(C)[C@H]1CC2 | male Sprague-Dawley rat | oral, 20 mg/kg | 10.3 ng/mL

Repeated from above:
SMILES | test system | conditions | Cmax
COC1C(c2ccc(Cl)c(Cc3ccc(OC4CCOC4)cc3)c2)OC(CO)C(O)C1O (stereo not drawn) | Sprague-Dawley rat | oral, 5 mg/kg | 3140 ng/mL
Cc1cccc(Cn2ncc3c4cc(F)c(CN(C)C)cc4n(C)c3c2=O)n1 | Sprague-Dawley rat | oral, 10 mg/kg | 301 ng/mL
